Measured values of several laboratories.
Numbers after ± are the reported error. In brackets after ≈: the same amount, converted by molar mass.

For `CC[C@H](C)[C@H](NC(=O)[C@H](C)NC(=O)[C@H](CCC(=O)O)NC(=O)[C@H](CCC(=O)O)NC(=O)[C@H](CC(C)C)NC(=O)[C@H](CCCCN)NC(=O)[C@H](CCCCN)NC(=O)[C@H](CCSC)NC(=O)[C@H](CCC(=O)O)NC(=O)[C@H](Cc1ccc(O)cc1)NC(=O)[C@H](CCC(=O)O)NC(=O)[C@H](CC(C)C)NC(=O)[C@H](CC(=O)O)NC(=O)[C@H](CC(C)C)NC(=O)[C@H](Cc1ccccc1)NC(=O)[C@H](Cc1ccccc1)NC(=O)[C@@H](NC(=O)[C@H](CC(N)=O)NC(=O)[C@@H](NC(=O)[C@H](CCC(N)=O)NC(=O)[C@H](CC(=O)O)NC(=O)[C@H](CC(C)C)NC(=O)[C@@H](N)CO)[C@@H](C)CC)C(C)C)C(=O)N[C@@H](CCCCN)C(=O)N[C@@H](CCCCN)C(=O)N[C@@H](CC(C)C)C(=O)N[C@@H](CCC(=O)O)C(=O)N[C@@H](CCC(=O)O)C(=O)N[C@@H](C)C(=O)N[C@@H](Cc1ccc(O)cc1)C(=O)N[C@H](C(=O)N[C@@H](CC(=O)O)C(=O)N[C@@H](CC(C)C)C(=O)N[C@@H](CCCCN)C(=O)N[C@@H](CCC(=O)O)C(=O)N[C@@H](CC(C)C)C(=O)O)[C@@H](C)CC`, the IC50 was 0.488 µM (HCoV-OC43; viral infection, inhibitor, immunostaining; HCT-8; 2 days, dual mutations).
For `NC[C@@H](NC[C@@H]1CCCN1C[C@@H](CO)NC[C@@H](NCCc1ccc(-c2ccccc2)cc1)c1ccccc1)c1ccccc1`, “potentiation of amikacin” read 2.2 fold (Klebsiella pneumoniae; bacterial growth; 24 µM, fold shift of IC50, added: amikacin).
The MIC99 of `O=C(O)c1ccc(-c2ccc([N+](=O)[O-])cc2Cl)o1` is reported as 500 µM (≈ 134 µg/mL) (Mycobacterium bovis; BCG).
`Cc1cc(=O)oc2cc(OCCCCn3cc(COc4ccc(N5C(N)=NC(N)=NC56CCCCC6)cc4)nn3)ccc12` has an MIC50 of 3.2 µM (≈ 1.87 µg/mL) (Mycobacterium bovis; BCG Tac^r9.1, thyA S125P missense; TA-C-resistant thyA mutant).
For `CC[C@H](C)[C@H](NC(=O)[C@H](C)NC(=O)[C@H](CCC(=O)O)NC(=O)[C@H](CCC(=O)O)NC(=O)[C@H](CC(C)C)NC(=O)[C@H](CCCCN)NC(=O)[C@H](CCCCN)NC(=O)[C@H](CCSC)NC(=O)[C@H](CCC(=O)O)NC(=O)[C@H](Cc1ccc(O)cc1)NC(=O)[C@H](CCC(=O)O)NC(=O)[C@H](CC(C)C)NC(=O)[C@H](CC(=O)O)NC(=O)[C@H](CC(C)C)NC(=O)[C@H](Cc1ccccc1)NC(=O)[C@@H](NC(=O)[C@@H](NC(=O)[C@H](CC(N)=O)NC(=O)[C@@H](NC(=O)[C@H](CCC(N)=O)NC(=O)[C@H](CC(=O)O)NC(=O)[C@H](CC(C)C)NC(=O)[C@@H](N)CO)[C@@H](C)CC)C(C)C)[C@@H](C)O)C(=O)N[C@@H](CCCCN)C(=O)N[C@@H](CCCCN)C(=O)N[C@@H](CC(C)C)C(=O)N[C@@H](CCC(=O)O)C(=O)N[C@@H](CCC(=O)O)C(=O)N[C@@H](CO)C(=O)N[C@@H](Cc1ccc(O)cc1)C(=O)N[C@H](C(=O)N[C@@H](CC(=O)O)C(=O)N[C@@H](CC(C)C)C(=O)N[C@@H](CCCCN)C(=O)N[C@@H](CCC(=O)O)C(=O)N[C@@H](CC(C)C)C(=O)O)[C@@H](C)CC`, the IC50 was 0.508 µM (HCoV-OC43; viral infection, inhibitor, immunostaining; HCT-8; 2 days).
Under “MIC50 to Kd ratio”, `c1cn(Cc2ccc(-c3ccc4[nH]ccc4c3)cc2)cn1` is recorded as over 2 (Mycobacterium bovis; BCG DSM 43990).
The EC50 of `NC1CSC2(SC1)C1CC3CC(C1)CC2C3` (centres unmarked) is reported as 0.07 ± 0.01 µM (Influenza A virus; viral replication, plaque reduction; MDCK, A/Udorn/72 H3N2 M2 wild type).
`C=CC(=O)Nc1cc(-n2c(=O)ccc3cnc4ccc(-c5cn[nH]c5)cc4c32)ccc1C` gave a GI50 of 1.4 µM (OCI-AML-3; cell growth; 72 h).
`CC[C@H](C)[C@H](NC(=O)[C@H](C)NC(=O)[C@H](CCC(=O)O)NC(=O)[C@H](CCC(=O)O)NC(=O)[C@H](CC(C)C)NC(=O)[C@H](CCCCN)NC(=O)[C@H](CCCCN)NC(=O)[C@H](CCSC)NC(=O)[C@H](CCC(=O)O)NC(=O)[C@H](Cc1ccc(O)cc1)NC(=O)[C@H](CCC(=O)O)NC(=O)[C@H](CC(C)C)NC(=O)[C@H](CC(=O)O)NC(=O)[C@H](CC(C)C)NC(=O)[C@H](Cc1ccccc1)NC(=O)[C@@H](NC(=O)[C@@H](NC(=O)[C@H](CC(N)=O)NC(=O)[C@@H](NC(=O)[C@H](CCC(N)=O)NC(=O)[C@H](CC(=O)O)NC(=O)[C@H](CC(C)C)NC(=O)[C@@H](N)CO)[C@@H](C)CC)C(C)C)[C@@H](C)O)C(=O)N[C@@H](CCCCN)C(=O)N[C@@H](CCCCN)C(=O)N[C@@H](CC(C)C)C(=O)N[C@@H](CCC(=O)O)C(=O)N[C@@H](CCC(=O)O)C(=O)N[C@@H](C)C(=O)N[C@@H](Cc1ccc(O)cc1)C(=O)N[C@H](C(=O)N[C@@H](CC(=O)O)C(=O)N[C@@H](CC(C)C)C(=O)N[C@@H](CCCCN)C(=O)N[C@@H](CCC(=O)O)C(=O)N[C@@H](CC(C)C)C(=O)O)[C@@H](C)CC` has an IC50 of 0.515 µM (HCoV-OC43; viral infection, inhibitor, immunostaining; HCT-8; 2 days).
The IC20 of `Nc1n[nH]c(=O)[nH]1` is reported as 22400 µM (Aliivibrio fischeri; bioluminescence, Microtox; 30 min).
`CC(CCN[C@H](CN[C@H](CO)CN1CCC[C@H]1CN[C@H](CN)c1ccccc1)c1ccccc1)c1ccccc1` (some centres unmarked): “potentiation of amikacin” 2 fold (Acinetobacter baumannii; bacterial growth; 16 µM, fold shift of IC90, added: amikacin).
`C[C@H](CS)C(=O)N[C@H](Cc1c[nH]c2ccccc12)C(=O)O` — result for “MIC of meropenem”: 8 µg/mL (Escherichia coli; VIM-1 producing; 10 µM, added: meropenem).
With `CC[C@H](C)[C@@H]1NC(=O)[C@@H](CC(C)C)NC(=O)[C@H](CCN)NC(=O)[C@@H](NC(=O)[C@@H](CO)NC(=O)[C@@H](NC(=O)[C@H](CCN)NC(=O)c2ccc(-c3ccccc3)cc2)[C@@H](C)O)CCNC(=O)[C@H](CC(C)C)NC(=O)[C@H](CCN)NC(=O)[C@H](CCN)NC1=O` the MIC was 0.125 µg/mL (Neisseria gonorrhoeae; 49226).
`CC[C@@H]1NC(=O)[C@H](CO)NC(=O)CNC(=O)[C@H](CSCNC(C)=O)NC(=O)[C@H](CCCCN)NC(=O)CNC(=O)[C@H](CO)NC(=O)[C@H](CCCNC(=N)N)NC(=O)[C@@H]2CSSC[C@H](NC(=O)[C@H](CCCCN)NC(=O)[C@H](C)NC(=O)CNC(=O)[C@H](CCCCN)NC(=O)CNC(=O)[C@H](CCCCN)NC1=O)C(=O)N[C@@H](CO)C(=O)N[C@@H](CCCNC(=N)N)C(=O)N[C@@H](CC(C)C)C(=O)N[C@@H](CCSC)C(=O)N[C@@H](Cc1ccc(O)cc1)C(=O)N[C@@H](CC(=O)O)C(=O)N[C@@H](CSCNC(C)=O)C(=O)N[C@@H](CC)C(=O)N[C@@H]([C@@H](C)O)C(=O)NCC(=O)N[C@@H](CO)C(=O)N2` has an MIC of 42.2 µM (Candida tropicalis).
`CC[C@H](C)[C@H](NC(=O)[C@H](C)NC(=O)[C@H](CCC(=O)O)NC(=O)[C@H](CCC(=O)O)NC(=O)[C@H](CC(C)C)NC(=O)[C@H](CCCCN)NC(=O)[C@H](CCCCN)NC(=O)[C@H](CCSC)NC(=O)[C@H](CCC(=O)O)NC(=O)[C@H](Cc1ccc(O)cc1)NC(=O)[C@H](CCC(=O)O)NC(=O)[C@H](CC(C)C)NC(=O)[C@H](CC(=O)O)NC(=O)[C@H](CC(C)C)NC(=O)[C@H](Cc1ccccc1)NC(=O)[C@@H](NC(=O)[C@@H](NC(=O)[C@H](CC(N)=O)NC(=O)[C@@H](NC(=O)[C@H](CCC(N)=O)NC(=O)[C@H](CC(=O)O)NC(=O)[C@H](CC(C)C)NC(=O)[C@H](CO)NC(=O)[C@H](CC(C)C)NC(=O)[C@H](CC(=O)O)NC(=O)[C@@H]1CCCN1C(=O)[C@H](C)N)[C@@H](C)CC)C(C)C)[C@@H](C)O)C(=O)N[C@@H](CCCCN)C(=O)N[C@@H](CCCCN)C(=O)N[C@@H](CC(C)C)C(=O)N[C@@H](CCC(=O)O)C(=O)N[C@@H](CCC(=O)O)C(=O)N[C@@H](CO)C(=O)N[C@@H](Cc1ccc(O)cc1)C(=O)N[C@H](C(=O)N[C@@H](CC(=O)O)C(=O)N[C@@H](CC(C)C)C(=O)N[C@@H](CCCCN)C(=O)N[C@@H](CCC(=O)O)C(=O)N[C@@H](CC(C)C)C(=O)O)[C@@H](C)CC` gave an IC50 of 0.161 µM (HCoV-OC43; viral infection, inhibitor, immunostaining; HCT-8; 2 days).
For `NC1=NC2(CCCCC2)N(c2ccc(OCc3cn(CCCCOc4ccc5ccc(=O)oc5c4)nn3)cc2)C(N)=N1`, the MIC50 was 3.2 µM (≈ 1.83 µg/mL) (Mycobacterium bovis BCG; resistant, thyA W98R).
The MIC90 of `Nc1nc(N)c2c(Cl)c(CNc3ccc(C(=O)O)cc3)ccc2n1` is reported as 0.03 µM (≈ 0.0103 µg/mL) (Mycobacterium tuberculosis; bacterial growth; H37Rv).

Some of these lines once more:
The MIC90 of `Nc1nc(N)c2c(Cl)c(CNc3ccc(C(=O)O)cc3)ccc2n1` is reported as 0.03 µM (≈ 0.0103 µg/mL) (Mycobacterium tuberculosis; bacterial growth; H37Rv).
